Measured values pooled from the literature.
Numbered parts are unrelated; each lists some results of a single study. “And” joins repeats or separate records; there may be more than shown.
Sequence of UniProt P22607 (whole entry, looked up): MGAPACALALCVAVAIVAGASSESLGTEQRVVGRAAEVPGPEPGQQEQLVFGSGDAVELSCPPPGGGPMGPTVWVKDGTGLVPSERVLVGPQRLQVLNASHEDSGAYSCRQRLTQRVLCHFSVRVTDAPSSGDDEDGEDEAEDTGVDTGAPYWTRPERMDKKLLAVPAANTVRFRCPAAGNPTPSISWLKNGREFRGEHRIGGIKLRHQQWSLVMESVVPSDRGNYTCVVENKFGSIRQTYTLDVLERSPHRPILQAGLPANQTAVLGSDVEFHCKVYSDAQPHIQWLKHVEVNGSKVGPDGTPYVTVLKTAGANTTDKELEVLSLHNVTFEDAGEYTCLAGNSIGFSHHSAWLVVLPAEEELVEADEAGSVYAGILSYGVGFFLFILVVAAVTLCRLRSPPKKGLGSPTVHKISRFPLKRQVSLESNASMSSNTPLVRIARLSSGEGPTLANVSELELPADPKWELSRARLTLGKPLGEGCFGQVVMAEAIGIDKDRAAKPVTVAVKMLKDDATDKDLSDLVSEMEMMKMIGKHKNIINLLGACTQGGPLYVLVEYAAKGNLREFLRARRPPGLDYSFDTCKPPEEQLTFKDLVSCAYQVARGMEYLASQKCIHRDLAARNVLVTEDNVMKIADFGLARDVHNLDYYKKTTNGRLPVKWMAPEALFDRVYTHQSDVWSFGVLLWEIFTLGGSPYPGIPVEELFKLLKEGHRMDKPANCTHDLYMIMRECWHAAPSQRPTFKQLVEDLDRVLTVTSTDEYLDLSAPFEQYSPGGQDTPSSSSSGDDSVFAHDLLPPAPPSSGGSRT
Sequence of UniProt P36507 (whole entry, looked up): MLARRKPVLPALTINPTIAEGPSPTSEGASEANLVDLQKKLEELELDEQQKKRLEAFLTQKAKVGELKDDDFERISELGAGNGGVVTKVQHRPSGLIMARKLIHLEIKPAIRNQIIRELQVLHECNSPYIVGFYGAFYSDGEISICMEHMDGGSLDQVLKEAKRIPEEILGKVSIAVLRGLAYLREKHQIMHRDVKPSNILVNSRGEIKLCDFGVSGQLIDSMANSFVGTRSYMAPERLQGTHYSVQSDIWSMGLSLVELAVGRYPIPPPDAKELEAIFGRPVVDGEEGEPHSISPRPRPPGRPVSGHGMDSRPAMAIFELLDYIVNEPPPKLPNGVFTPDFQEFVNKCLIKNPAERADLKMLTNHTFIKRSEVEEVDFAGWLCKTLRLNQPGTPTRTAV
Sequence of UniProt Q9UL54 (whole entry, looked up): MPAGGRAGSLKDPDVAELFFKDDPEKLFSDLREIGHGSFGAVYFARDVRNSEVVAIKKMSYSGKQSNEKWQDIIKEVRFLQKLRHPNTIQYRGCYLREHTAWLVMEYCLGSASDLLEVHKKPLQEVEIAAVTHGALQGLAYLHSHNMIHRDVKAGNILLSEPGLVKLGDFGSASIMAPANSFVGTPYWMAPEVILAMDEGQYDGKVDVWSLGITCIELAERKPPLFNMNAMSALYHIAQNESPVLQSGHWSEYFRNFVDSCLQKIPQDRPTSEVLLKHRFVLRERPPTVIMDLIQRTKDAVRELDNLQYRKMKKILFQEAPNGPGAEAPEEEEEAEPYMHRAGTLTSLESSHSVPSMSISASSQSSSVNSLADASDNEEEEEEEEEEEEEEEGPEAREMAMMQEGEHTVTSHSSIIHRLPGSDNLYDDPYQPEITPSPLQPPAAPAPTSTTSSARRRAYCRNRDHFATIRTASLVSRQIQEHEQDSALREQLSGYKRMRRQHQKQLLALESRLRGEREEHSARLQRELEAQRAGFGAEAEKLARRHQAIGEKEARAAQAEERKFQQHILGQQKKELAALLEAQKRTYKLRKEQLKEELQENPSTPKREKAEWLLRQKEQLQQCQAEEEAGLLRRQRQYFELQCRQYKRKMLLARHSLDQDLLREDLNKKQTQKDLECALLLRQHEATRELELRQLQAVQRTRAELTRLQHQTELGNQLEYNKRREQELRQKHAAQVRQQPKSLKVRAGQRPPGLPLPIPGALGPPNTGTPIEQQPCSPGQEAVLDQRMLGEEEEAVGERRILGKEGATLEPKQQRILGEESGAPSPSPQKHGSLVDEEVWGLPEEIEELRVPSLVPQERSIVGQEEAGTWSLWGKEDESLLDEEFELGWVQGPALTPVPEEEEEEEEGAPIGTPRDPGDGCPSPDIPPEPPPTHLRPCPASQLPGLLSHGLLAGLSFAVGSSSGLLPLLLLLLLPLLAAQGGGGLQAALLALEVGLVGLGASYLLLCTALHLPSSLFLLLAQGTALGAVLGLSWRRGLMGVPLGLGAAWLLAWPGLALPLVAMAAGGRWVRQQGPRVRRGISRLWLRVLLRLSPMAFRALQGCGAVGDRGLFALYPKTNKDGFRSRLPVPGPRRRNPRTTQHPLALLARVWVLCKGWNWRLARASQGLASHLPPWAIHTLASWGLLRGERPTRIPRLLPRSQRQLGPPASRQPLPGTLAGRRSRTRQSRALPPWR
Sequence of UniProt P10398 (whole entry, looked up): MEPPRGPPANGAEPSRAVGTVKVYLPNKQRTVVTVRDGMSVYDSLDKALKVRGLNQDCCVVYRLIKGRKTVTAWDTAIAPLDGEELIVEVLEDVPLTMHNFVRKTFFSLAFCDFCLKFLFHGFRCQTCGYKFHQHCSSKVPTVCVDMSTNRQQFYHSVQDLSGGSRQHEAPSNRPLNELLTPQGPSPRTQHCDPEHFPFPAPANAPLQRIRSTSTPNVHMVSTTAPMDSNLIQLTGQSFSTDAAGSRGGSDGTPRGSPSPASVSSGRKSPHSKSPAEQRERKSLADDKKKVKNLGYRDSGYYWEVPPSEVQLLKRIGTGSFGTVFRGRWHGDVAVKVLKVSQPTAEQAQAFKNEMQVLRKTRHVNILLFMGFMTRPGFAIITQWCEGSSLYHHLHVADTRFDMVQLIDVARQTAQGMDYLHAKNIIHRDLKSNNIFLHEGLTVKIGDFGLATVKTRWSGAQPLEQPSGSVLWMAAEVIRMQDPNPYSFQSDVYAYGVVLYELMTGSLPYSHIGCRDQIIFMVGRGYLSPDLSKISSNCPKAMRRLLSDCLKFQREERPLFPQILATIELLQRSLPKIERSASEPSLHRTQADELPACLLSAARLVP
Sequence of UniProt P29320 (whole entry, looked up): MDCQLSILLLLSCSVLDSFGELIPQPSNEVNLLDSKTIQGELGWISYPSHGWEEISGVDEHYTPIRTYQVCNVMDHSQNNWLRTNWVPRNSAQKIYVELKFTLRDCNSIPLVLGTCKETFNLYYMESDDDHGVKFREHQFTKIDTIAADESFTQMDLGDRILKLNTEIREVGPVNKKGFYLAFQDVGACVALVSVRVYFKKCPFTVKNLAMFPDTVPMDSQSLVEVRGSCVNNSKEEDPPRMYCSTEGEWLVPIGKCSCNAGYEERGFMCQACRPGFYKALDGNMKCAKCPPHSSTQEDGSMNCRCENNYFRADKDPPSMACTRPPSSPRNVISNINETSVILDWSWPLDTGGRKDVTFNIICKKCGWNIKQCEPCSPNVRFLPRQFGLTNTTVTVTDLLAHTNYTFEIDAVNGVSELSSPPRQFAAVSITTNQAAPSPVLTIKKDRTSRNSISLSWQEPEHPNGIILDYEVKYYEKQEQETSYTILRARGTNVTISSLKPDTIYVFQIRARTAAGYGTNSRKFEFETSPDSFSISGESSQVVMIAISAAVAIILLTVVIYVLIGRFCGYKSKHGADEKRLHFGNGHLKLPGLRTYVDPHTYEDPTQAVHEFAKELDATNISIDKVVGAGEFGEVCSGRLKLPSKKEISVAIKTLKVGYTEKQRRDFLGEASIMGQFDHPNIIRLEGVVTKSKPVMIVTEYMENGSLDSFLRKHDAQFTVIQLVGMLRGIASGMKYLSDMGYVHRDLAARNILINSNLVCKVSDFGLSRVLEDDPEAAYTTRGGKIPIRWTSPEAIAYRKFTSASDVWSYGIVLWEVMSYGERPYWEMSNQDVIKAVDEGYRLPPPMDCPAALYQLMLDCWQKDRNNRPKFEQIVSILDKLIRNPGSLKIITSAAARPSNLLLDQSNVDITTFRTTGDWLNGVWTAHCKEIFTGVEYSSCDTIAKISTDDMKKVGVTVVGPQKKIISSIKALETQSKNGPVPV
Sequence of UniProt P47901 (whole entry, looked up): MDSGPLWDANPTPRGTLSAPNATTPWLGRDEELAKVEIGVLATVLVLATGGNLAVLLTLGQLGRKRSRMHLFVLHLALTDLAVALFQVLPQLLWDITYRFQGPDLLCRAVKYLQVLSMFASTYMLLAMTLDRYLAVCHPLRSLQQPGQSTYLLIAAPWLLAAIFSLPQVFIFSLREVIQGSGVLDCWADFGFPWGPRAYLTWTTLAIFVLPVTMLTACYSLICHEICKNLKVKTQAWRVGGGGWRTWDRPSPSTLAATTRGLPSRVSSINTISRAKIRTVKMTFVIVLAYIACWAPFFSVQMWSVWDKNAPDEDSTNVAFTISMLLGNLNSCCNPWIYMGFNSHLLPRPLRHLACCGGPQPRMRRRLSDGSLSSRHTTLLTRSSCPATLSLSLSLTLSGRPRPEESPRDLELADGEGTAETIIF
Sequence of UniProt P41743 (whole entry, looked up): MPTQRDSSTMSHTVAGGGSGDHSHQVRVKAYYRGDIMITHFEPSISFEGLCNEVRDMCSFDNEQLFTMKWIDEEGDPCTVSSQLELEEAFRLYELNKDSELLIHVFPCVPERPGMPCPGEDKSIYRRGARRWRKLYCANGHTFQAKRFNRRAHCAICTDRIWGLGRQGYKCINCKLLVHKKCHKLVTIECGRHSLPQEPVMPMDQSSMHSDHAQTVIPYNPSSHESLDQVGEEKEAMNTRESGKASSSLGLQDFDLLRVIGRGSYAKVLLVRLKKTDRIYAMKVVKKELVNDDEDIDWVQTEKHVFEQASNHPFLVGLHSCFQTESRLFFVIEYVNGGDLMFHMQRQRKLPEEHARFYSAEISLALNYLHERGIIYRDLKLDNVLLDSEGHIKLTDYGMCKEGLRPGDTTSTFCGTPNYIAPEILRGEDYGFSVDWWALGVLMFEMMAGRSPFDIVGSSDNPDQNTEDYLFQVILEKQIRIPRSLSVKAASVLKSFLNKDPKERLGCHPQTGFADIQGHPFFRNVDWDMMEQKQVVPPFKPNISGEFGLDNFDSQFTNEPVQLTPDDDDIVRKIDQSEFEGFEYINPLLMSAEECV

Sample 1
Cell line: HaCaT
Tested at: 100 µM
Time: 18 h
| SMILES | viability [%] |
| --- | --- |
| Oc1cc(O)c(Cl)cn1 | 119 |
| CCN(CCO)CCCC(C)Nc1ccnc2cc(Cl)ccc12 (centres unmarked) | 112 |
| COc1ccc(-c2cc(=S)ss2)cc1 | 86.8 |
| Nc1cccc2c1C(=O)N(C1CCC(=O)NC1=O)C2=O (centres unmarked) | 116 |
| NC(=O)OCC(COC(N)=O)c1ccccc1 | 108 |
| Oc1ccc(O)cc1 | 139 |

Sample 2
Cell line: mouse MPNST tumor cells
Method: high-content nuclear imaging
Item: cell number
Tested at: 10 µM
Time: 12 h
Notes: mean of 2 replicates
Reference: plate mean
Direction: higher = more cells
| SMILES | nuclei count |
| --- | --- |
| CC(ONC(=O)c1cc(C(F)(F)F)cc(C(F)(F)F)c1)C(=O)Nc1ccc(Cl)cc1 (centres unmarked) | 1.49 z-score |
| CC(C)c1c(C(=O)Nc2ccccc2)c(-c2ccccc2)c(-c2ccc(F)cc2)n1CC[C@@H](O)C[C@@H](O)CC(=O)O | -2.52 z-score and -1.52 z-score |
| CC(C)S(=O)(=O)c1ccc2nccc(Nc3ccc4scnc4c3)c2c1 | 2.71 z-score |
| CN(CCOc1ccc(CC2SC(=O)NC2=O)cc1)c1ccccn1 (centres unmarked) | 2.64 z-score and 2.79 z-score and 1.9 z-score |

Sample 3
Host: mouse
Sample: microsomes or S9
Tested at: 2 µM
Time: 0.5 h
| Compound | remaining compound |
| --- | --- |
| CCc1c(C(=O)OC(C)c2nnc(C)o2)[nH]c(C)c1C(C)=O (centres unmarked) | 66.7% |
| O=C1NCC(Cn2c3ccccc3c3ccccc32)O1 (centres unmarked) | 14.6% |
| Clc1ccc(OCc2nnc(-c3cccnc3)[nH]2)cc1 | 31% |
| CC1=CC(=O)/C(=C(/C)Nc2cc(-c3ccccc3)n[nH]2)C(=O)O1 | 73.7% |
| c1cc2c(cn1)cnn2Cc1nnc2ccc(-n3ncc4cnccc43)nn12 | 2.92% |

Sample 4
Compound: COc1cc(-c2cn(C3CCc4ccccc4N(CC(F)(F)F)C3=O)nn2)ccc1-n1ccc(C)n1 (centres unmarked)
Effect on: cell-free assay
Method: competition with immobilised ligand
Tested at: 1 µM
| target | remaining binding [%] |
| --- | --- |
| NEK2 (Homo sapiens, UniProt P51955) | 100 |
| PRKCI (Homo sapiens, UniProt P41743) | 100 |
| PIK3CA (Homo sapiens, UniProt P42336, M1043I) | 100 |
| CDK18 (Homo sapiens, UniProt Q07002) | 100 |

Sample 5
Method: PRP chromatography
Notes: linear fit, 1 mL
| SMILES | logD 1,9-decadiene/water |
| --- | --- |
| CC(C)C[C@@H]1NC(=O)[C@H](CC(C)C)NC(=O)[C@@H](CC(C)C)NC(=O)[C@@H](C(C)C)NC(=O)[C@H](C(C)C)NC(=O)[C@H](CC(C)C)NC(=O)[C@@H](CC(C)C)NC1=O | 1.97 log units |
| CC(C)C[C@@H]1NC(=O)[C@H](CC(C)C)NC(=O)[C@@H](C(C)C)NC(=O)[C@H](C)NC(=O)[C@H](C(C)C)NC(=O)[C@H](C)NC(=O)[C@H](C)NC1=O | -2.53 log units |
| CC(C)C[C@@H]1NC(=O)[C@H](C)NC(=O)[C@H](CCC(=O)N2CCCC2)NC(=O)[C@@H](CCC(=O)N2CCCC2)NC(=O)[C@H](CC(C)C)NC(=O)[C@@H](CC(C)C)NC(=O)[C@H](CC(C)C)NC1=O | -1.67 log units |
| CC(C)C[C@@H]1NC(=O)[C@H](C)NC(=O)[C@H](CCC(=O)N2CCCC2)NC(=O)[C@H](C)NC(=O)[C@H](CC(C)C)NC(=O)[C@H](CC(C)C)NC(=O)[C@@H](C(C)C)NC1=O | -2.32 log units |
| CC(C)C[C@@H]1NC(=O)[C@H](C)NC(=O)[C@@H](CC(C)C)NC(=O)[C@@H](CC(C)C)NC(=O)[C@H](C(C)C)NC(=O)[C@H](CC(C)C)NC(=O)[C@@H](CC(C)C)NC1=O | 1.14 log units |

Sample 6
Structure (SMILES): COc1cc(Nc2c(C#N)cnc3cc(OCCCN4CCN(C)CC4)c(OC)cc23)c(Cl)cc1Cl
Effect on: enzyme activity
Mode: inhibitor
Tested at: 0.5 µM
Reference: control
| target | remaining activity |
| --- | --- |
| ULK3 (Homo sapiens, UniProt Q6PHR2) | 100% |
| ACVR1B (Homo sapiens, UniProt P36896) | 105% |
| MAP3K5 (Homo sapiens, UniProt Q99683) | 95.7% |
| ULK2 (Homo sapiens, UniProt Q8IYT8) | 92.2% |
| ARAF (Homo sapiens, UniProt P10398) | 109% |
| MERTK (Homo sapiens, UniProt Q12866) | 28.9% |
| MAP3K14 (Homo sapiens, UniProt Q99558) | 129% |
| NEK6 (Homo sapiens, UniProt Q9HC98) | 85.3% |
| RPS6KA2 (Homo sapiens, UniProt Q15349) | 44.2% |
| TEK (Homo sapiens, UniProt Q02763) | 82.6% |
| TAOK2 (Homo sapiens, UniProt Q9UL54) | 65.4% |
| WEE1 (Homo sapiens, UniProt P30291) | 40.5% |
| MAP2K2 (Homo sapiens, UniProt P36507) | 8.43% |
| FRK (Homo sapiens, UniProt P42685) | 29.2% |
| JAK3 (Homo sapiens, UniProt P52333) | 88.5% |
| FGFR3 (Homo sapiens, UniProt P22607) | 82.6% |
| GRK7 (Homo sapiens, UniProt Q8WTQ7) | 101% |
| FGFR1 (Homo sapiens, UniProt P11362) | 64.4% |
| NEK1 (Homo sapiens, UniProt Q96PY6) | 15.2% |
| ABL2 (Homo sapiens, UniProt P42684) | 2.19% |
| GSK3B (Homo sapiens, UniProt P49841) | 99.9% |
| EPHA3 (Homo sapiens, UniProt P29320) | 31.7% |

Mixed results
| Compound | target | assay | setting | scale | measurement | result |
| --- | --- | --- | --- | --- | --- | --- |
| CCN(c1nc(N)c(C(=O)N=C(N)N)nc1Cl)C(C)C | Vasopressin V1b receptor (AVPR1B, Homo sapiens, UniProt P47901) | β-arrestin recruitment, agonist, PRESTO-Tango | 10 µM | reference: untreated | fold over basal | 0.39 |
